Measured values gathered from unrelated publications.
Compare with care: the assays were run in different laboratories.

COc1cc2ncnc(Nc3ccc4c(c3)/C(=C/c3cccc(Cl)c3)C(=O)N4C)c2cc1OC
IC50 (B16; cell growth or viability, MTT): 2.08 µM

C=CC(=O)N1CCN(c2nc(=O)n(-c3c(C)ccnc3C(C)C)c3nc(-c4c(O)cccc4F)c(F)cc23)[C@@H](C)C1
IC50 (NCI-H23; cell growth or viability, ATP luminescence): > 10 µM

COc1cc(Nc2nccc(-c3cnn4nc(OC)ccc34)n2)cc(C(F)(F)F)c1
IC50 (EPLC-272H; cell growth or viability, ATP luminescence): 0.39 µM

Cc1nc(Nc2ccc3c(c2)/C(=C/c2ccccc2C)C(=O)N3C)c2ccccc2n1
IC50 (B16; cell growth or viability, MTT): 3.24 µM

COC(=O)CN=c1scc(-c2ccccc2)n1-c1ccc(OC)cc1
IC50 (HepG2; cell growth or viability, MTT; 72 h): 15 µM

CCCCNC(=O)Nc1ccc(-c2ccc3ncn(CCCC)c(=O)c3c2)cn1
IC50 (HCC827; cell growth or viability, CCK-8; 72 h): 2.21 µM

COc1cc2nc(N3CCN(C(=O)c4ccco4)CC3)nc(N)c2cc1OC
IC50 (HONE1; cell growth or viability, MTT; 48 h): 55.9 µM

Cc1nc(NC(=O)N2CCC[C@H]2C(N)=O)sc1-c1ccnc(C(C)(C)C(F)(F)F)c1
IC50 (BEAS-2B; cell growth or viability, MTT): 18.6 µM

Cc1ccc(NC(=O)Nc2ccc(-c3ccc4ncn(Cc5ccccc5)c(=O)c4c3)cn2)cc1
IC50 (NCI-H1975; cell growth or viability, CCK-8; 72 h): > 10 µM

Cc1nc(Nc2ccc3c(c2)/C(=C/c2ccccc2Cl)C(=O)N3)c2ccccc2n1
IC50 (BEAS-2B; cell growth or viability, MTT): 39.1 µM

CCCCn1cnc2ccc(-c3ccc(NC(=O)c4ccccc4)nc3)cc2c1=O
IC50 (HCC827; cell growth or viability, CCK-8; 72 h): 0.78 µM

CC(C)C[C@H](NC(=O)[C@H](Cc1ccccc1)NC(=O)c1cnccn1)B(O)O
IC50 (RKO; cell growth or viability, ATP luminescence): 0.0089 µM

CCCn1cnc2ccc(-c3ccc(N4CCCCCCC4=O)nc3)cc2c1=O
IC50 (NCI-H1975; cell growth or viability, CCK-8; 72 h): > 10 µM

Cc1nc(N(C)c2ccc3c(c2)/C(=C/c2ccccc2Cl)C(=O)N3C)c2ccccc2n1
IC50 (BEAS-2B; cell growth or viability, MTT): 8.96 µM

Cc1cc(/C=C/C#N)cc(C)c1Nc1ccnc(Nc2ccc(C#N)cc2)n1
IC50 (HONE1; cell growth or viability, MTT; 48 h): 25.9 µM

Cc1nc(Nc2ccc3c(c2)C(C)(C)C(=O)N3C)c2ccccc2n1
IC50 (BEAS-2B; cell growth or viability, MTT): 93.5 µM

COC(=O)c1cc(C(C)=NNc2nc(-c3cccc4cc[nH]c34)cs2)ccc1O
IC50 (human Skin fibroblast; cell growth or viability, MTT; 96 h): 204 µM

Cc1nc(Nc2ccc3c(c2)/C(=C/c2ccccc2)C(=O)N3Cc2ccccc2)c2ccccc2n1
IC50 (BEAS-2B; cell growth or viability, MTT): 23.9 µM

CCCCC(=O)Nc1ccc(-c2ccc3ncn(CC4CCC4)c(=O)c3c2)cn1
IC50 (HCC827; cell growth or viability, CCK-8; 72 h): 0.09 µM

C=C(F)C(=O)N1CCN(c2nc(OC[C@@H]3CCCN3C)nc3c2CCN(c2cccc4cccc(Cl)c24)C3)C[C@@H]1CC#N
IC50 (NCI-H23; cell growth or viability, ATP luminescence): 0.75 µM

Cc1ccccc1Cn1cc(-c2cccc(NC(=O)Nc3ccc(F)cc3)c2)nn1
IC50 (Huh-7; cell growth or viability, CCK-8; 72 h): 11.6 µM

CC1(C)CC[C@]2(CO)CC[C@]3(C)C(=CC[C@@H]4[C@@]5(C)CC[C@H](O)C(C)(C)[C@@H]5CC[C@]43C)[C@@H]2C1
IC50 (RAW264.7; NO release, inhibitor, Griess; LPS-stimulated): > 100 µM

CCCCC(=O)Nc1ccc(-c2ccc3ncn(CCC)c(=O)c3c2)cc1F
IC50 (HCC827; cell growth or viability, CCK-8; 72 h): 0.73 µM

COc1cc2ncnc(N(C)c3ccc4c(c3)/C(=C/c3ccccc3)C(=O)N4C)c2cc1OC (mixture of isomers)
IC50 (BEAS-2B; cell growth or viability, MTT): 23.7 µM

C#CCn1cnc2ccc(-c3ccc(NC(=O)CCCC)nc3)cc2c1=O
IC50 (HCC827; cell growth or viability, CCK-8; 72 h): > 10 µM

C[C@]12O[C@H](C[C@]1(O)CO)n1c3ccccc3c3c4c(c5c6ccccc6n2c5c31)CNC4=O
IC50 (MOLM-13; cell growth or viability, ATP luminescence; 72 h): 0.012 µM

CCCCC(=O)Nc1cc(F)c(-c2ccc3ncn(CCC)c(=O)c3c2)cn1
IC50 (HCC827; cell growth or viability, CCK-8; 72 h): 0.49 µM

Cc1nc(Nc2ncc(C(=O)Nc3c(C)cccc3Cl)s2)cc(N2CC[C@H](O)C2)n1
IC50 (OCI-Ly3; cell growth or viability, ATP luminescence; 72 h): > 10 µM
